{"data": "Assay results of several laboratories", "note": "Protocols differ between the studies behind these lines. ± marks the error that the study gave."}
{"Structure (SMILES)": "Cn1cncc1C1=CN(c2ncnc3[nH]cnc23)CCS1", "cell line": "MDA-MB-435", "notes": "melanoma cell line", "GI50": "13.5 µM"}
{"Structure (SMILES)": "Nc1n[nH]c2cc(I)ccc12", "cell line": "Ba/F3 TEL-VEGFR3", "effect on": "cell growth", "technique": "CCK-8", "GI50": "3.6 µM"}
{"Structure (SMILES)": "Cc1cn(-c2cc(NC(=O)c3ccc(C)c(Nc4nccc(-c5cccnc5)n4)c3)cc(C(F)(F)F)c2)cn1", "cell line": "Ba/F3 wild type (mouse)", "effect on": "cell growth", "time": "48 h", "GI50": "0.00492 ± 0.0005 µM"}
{"Structure (SMILES)": "Cc1cc(=O)oc2cc(OCCCCSC#N)ccc12", "cell line": "WiDr, multidrug-resistant", "technique": "sulforhodamine B", "GI50": "3.4 ± 0.4 µM"}
{"Structure (SMILES)": "Cc1c(C(=O)O)ccc2c3n(nc12)[C@@H]1[C@H](C3)N(CC2CC2)[C@@]2(C(=O)Nc3cc(Cl)ccc32)[C@H]1c1cccc(Cl)c1F", "cell line": "LS174T (MDM2 non-amplified)", "effect on": "cell growth", "technique": "alamarBlue", "time": "120 h", "GI50": "0.007 µM"}
{"Structure (SMILES)": "N#CSCCCCOc1ccc2c(-c3ccccc3)cc(=O)oc2c1", "cell line": "WiDr, multidrug-resistant", "technique": "sulforhodamine B", "GI50": "32 ± 4 µM"}
{"Structure (SMILES)": "CNC(=O)c1ccccc1Sc1ccc2c(N)n[nH]c2c1", "cell line": "Ba/F3 TEL-VEGFR3", "effect on": "cell growth", "technique": "CCK-8", "GI50": "2.6 µM"}
{"Structure (SMILES)": "O=C(/C=C/C=C/C=C/C1CCCCC1)NC1=C[C@@](O)(/C=C/C=C/C=C/C(=O)NC2=C(O)CCC2=O)[C@@H]2O[C@@H]2C1=O", "cell line": "HPAF-II", "technique": "CellTiter-Glo", "time": "78 h", "GI50": "17.5 µM"}
{"note": "A few entries again:"}
{"Structure (SMILES)": "O=C(/C=C/C=C/C=C/C1CCCCC1)NC1=C[C@@](O)(/C=C/C=C/C=C/C(=O)NC2=C(O)CCC2=O)[C@@H]2O[C@@H]2C1=O", "cell line": "HPAF-II", "technique": "CellTiter-Glo", "time": "78 h", "GI50": "17.5 µM"}
